Assay results gathered from unrelated publications.
A part holds a random share of what one study measured.

Sample 1 — method: RNA Bind-n-Seq; molecule type: RNA; matrix: in vitro; tested at: 365 nM; reference: no-protein control; reading: higher = stronger binding
Target: RNA binding protein fox-1 homolog 2, RRM domain, GST-SBP tag (RBFOX2, Homo sapiens, UniProt O43251-10, residues 100-194)
Setting: natural RNA segment, single round, ends assumed
Shared flanks, not repeated: GGGAGUUCUACAGUCCGACGAUC … UGGAAUUCUCGGGUGCCAA
Residues (chain): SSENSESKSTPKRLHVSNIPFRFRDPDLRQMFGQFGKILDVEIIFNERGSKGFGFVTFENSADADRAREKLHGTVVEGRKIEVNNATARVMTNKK
`UUAAGCAACCCACAAAUUUCUUCUCAGAUUUGUUUCCUAGAUUACUUAUGAUACUCAUCCCAUGUCUCAAUAAGAGUGUCUUUUCUUUCUGGAUGUGUUCUCUUACUCCC` — result for “RBNS enrichment (R)”: 0.429.
`AGAGGGUUGGUAUAAAAAUAAUUUUAAAAAAGCCUUCCUACACGUUAGAUUUGCCGUACCAAUCUCUGAAUGCCCCAUAAUUAUUAUUUCCAGUGUUUGGGAUGACCAGG` — result for “RBNS enrichment (R)”: 0.402.
`AUGUGUGGUGGACUGCAGAGCUGCUUCCACUUACAGGAGAGCUGAUAAUUUGUUAGCUGGAACCUAUUCACUUCCGAGAUUCAGACAUAGCCAUGCUGGUGGCCUUCUGA` — result for “RBNS enrichment (R)”: 0.391.
`UUGAAAUUUCUUUAUUAAUCGAUGAAAUAUGAAUUCUAAAUUCUAGCAUUGAAGCUUUUCACCAAAAGAAGUCUCUCCAAAAUAAAUCUUUUGCAGCAAAGUGAUAUUUA` — result for “RBNS enrichment (R)”: 0.948.
For `AGUCAGCCAAGGACAGUGCAGAGUCACGGGUUGGGAGGUAUGUGGGCUAGGGUAUGUGGUUUCCUCAGUCCUAAACGUCUGUGUGGCCAACUCAGCAUCUGCUUCCAGAA`, “RBNS enrichment (R)” read 1.02.
Under “RBNS enrichment (R)”, `AAUUAUCACCAGCUUUUUUUCAUUCUUAACUCUUUAAAGGAUUCAAACGCAACUCAAAUCUGUGCUGGACUUUAAAAAAACAAUUCAGGACCAAAUUUUUUCUCAGUGUG` is recorded as 0.819.
`UGUCUUGACACAAGCUGUUUUUACACCAGUGUCAUCCCUUUCUUGUAGAAUAUACUAAUAAUCUGUGCCAACUCUACCUUCCCACUUUUACCUCUGACAUCAUUCUUUUU`: “RBNS enrichment (R)” 0.88.
Under “RBNS enrichment (R)”, `AUAUUACUGGCGUUUUGUUCAUUUUAAGACUGUUAACAUGAAGAAAAGUGUGCUAGAACUUUUUAAAAACACAUAAUGUCUUGAAGUUAGAAUAAACACUAAGAAAUGAC` is recorded as 1.02.
For `UACCAUGCCAUCUGUGCCAGUGUGUGUCUGCCUCACCCUGUGCUUGACAUGUUCACCCAUCUUCUCUGCUUCCCGCCACCAUCCAGAUCCUCAGCGGCCGCCCCGGCUGU`, “RBNS enrichment (R)” read 0.222.
Under “RBNS enrichment (R)”, `UUUUCAUGUGGCUGGGUGGGUUUUUGCCUUUUUCUCUUGCCCUGUUCCUGGUGCCUUCUGAUGGGGCUGGAAUAGUUGAGGUGGAUGGUUCUACCCUUUCUGCCUUCUGU` is recorded as 0.296.
Under “RBNS enrichment (R)”, `UUUCUCUGUGUAGCCCUGGCUGUCCUGAAACUCACUCUGUAGAGCAGGCUGGCCUCGAACUUGGAUAUCCACCUGCCUCUCCCUCCCGAGUGCUGGGUUUAAAGGUAUGC` is recorded as 0.184.
`UGUCUCAUGUUUUAUAUGAUUAAAUUAUCAUUGUUUGUCCUUUAUGUAUUCUCUUCUACAAUACAACACAUUGAAACUGUAUUUACUUGUUAUGUUGUAAUAUUUUGCUG` — result for “RBNS enrichment (R)”: 0.954.

Sample 2 — method: protein binding microarray; molecule type: double-stranded DNA, one strand shown; matrix: in vitro; tested at: not given; reference: not given; reading: higher = stronger binding
Target: Histone acetyltransferase KAT6A, winged helix 1, GST fusion (KAT6A, Homo sapiens, UniProt Q92794, residues 1-85)
Setting: 8-mer, flanks averaged, mean of 2 arrays, mostly near background
Target sequence (chain): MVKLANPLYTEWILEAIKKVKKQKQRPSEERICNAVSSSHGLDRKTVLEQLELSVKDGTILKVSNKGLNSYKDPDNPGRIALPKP
`CGACCCAC` gave an E-score of -0.157.
With `ACAGTGTA` the E-score was -0.139.
`ACGTGCAT` gave an E-score of -0.188.
For `ACCGGAAA`, the E-score was 0.0987.
`CCCGTTTC` gave an E-score of 0.243.
For `ATTGCAAA`, the E-score was -0.205.
For `CGAGATCA`, the E-score was 0.0396.
The E-score of `CGCTATCA` is reported as 0.264.
`ACTCGCTG` gave an E-score of 0.123.
The E-score of `CCTTTCAG` is reported as 0.0178.
For `TAGCACGA`, the E-score was -0.0778.
For `CAGGATCG`, the E-score was -0.0926.
For `GCCGTGCA`, the E-score was 0.298.
With `GGAGGGAA` the E-score was -0.0152.
`CCTGTCAA` has an E-score of -0.203.
With `CTACGGTA` the E-score was 0.182.
`GCCGGTGA` has an E-score of 0.207.
The E-score of `CAATCGAC` is reported as -0.188.
For `GGGCGCCC`, the E-score was 0.349.
`GAACTAAA` has an E-score of -0.0877.

Sample 3 — method: RNA Bind-n-Seq; molecule type: RNA; matrix: in vitro; tested at: 1 µM; setting: whole 134-nt RNA, ends assumed; with: 150 mM KCl; reference: input library; reading: higher = stronger binding
Target: Ras GTPase-activating protein-binding protein 1, C-terminal RGG region (G3BP1, Homo sapiens, UniProt Q13283)
Chain of UniProt Q13283 (whole entry, looked up): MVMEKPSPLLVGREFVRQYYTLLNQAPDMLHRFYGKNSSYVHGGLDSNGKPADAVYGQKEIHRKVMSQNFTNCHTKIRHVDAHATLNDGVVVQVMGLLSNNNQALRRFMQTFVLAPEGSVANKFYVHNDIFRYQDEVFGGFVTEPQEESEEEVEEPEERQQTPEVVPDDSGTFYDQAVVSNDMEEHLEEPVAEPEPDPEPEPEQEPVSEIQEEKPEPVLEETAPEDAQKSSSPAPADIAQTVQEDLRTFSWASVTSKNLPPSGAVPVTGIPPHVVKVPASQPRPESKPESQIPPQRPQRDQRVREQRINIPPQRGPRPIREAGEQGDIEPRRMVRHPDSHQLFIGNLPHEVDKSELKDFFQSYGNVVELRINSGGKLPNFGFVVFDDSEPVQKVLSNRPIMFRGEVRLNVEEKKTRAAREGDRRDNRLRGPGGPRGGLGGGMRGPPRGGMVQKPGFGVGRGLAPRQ
Shared flanks, not repeated: GGGAGUUCUACAGUCCGACGAUC … UGGAAUUCUCGGGUGUCAAGG
For `UAACUUUAGAGGAGGAUCUGAUGGAUAUGGCAGUGGACGUGGAUUUGGGGAUUGCUAUAAUGGGUAUGGAGGAGGACCUGGAGGUGGCAA`, the log2 enrichment was -0.691.
With `CCUGUGCUACACAUCGUAUGUACCGAAUCGGGGUUUUUUGGGUUUUUUGGUUUUUUGGGGAAAGUAUUAUGUUACGCCGUUCGGAUCUGC` the log2 enrichment was -1.54.
For `UCCUGUGCUACACAUCGUAUGUACCGAAUCAAAUUUUUUUAAAUUUUUAAACCCCCAAAAAAGUAUUAUGUUACGCCGUUCGGAUCUGCA`, the log2 enrichment was -0.531.
The log2 enrichment of `AAGUCCUGUGCUACACAUCGUAUGUACCGAAUCGGGGUUUUUGGGGUGGGGUGGGGAAAGUAUUAUGUUACGCCGUUCGGAUCUGCACUU` is reported as 1.76.
With `AUUCUUCAUUGAGGGUGAGGAUCUCCCAAUGGGAGACUGCUCUGAAAAGAGCAUGUGCUUUUUGAAUUAGAUAACCUACUAUAAUCAUGG` the log2 enrichment was -1.2.
`UCAAGUCCUGUGCUACACAUCGUAUGUACCGAAUCGGGUUGGGUUGGGGUUGGGGAAAGUAUUAUGUUACGCCGUUCGGAUCUGCACUUC` has a log2 enrichment of 2.99.
For `CAAGUCCUGUGCUACACAUCGUAUGUACCGAAUCGGGAGGGUUUUUGGGAAAGGGAAAGUAUUAUGUUACGCCGUUCGGAUCUGCACUUC`, the log2 enrichment was 0.421.
`UCAAUGCCGGCUAUGCCCUGGCCCCAGCCACCAGUGCCAACGACAGCGAGCAGCAGAGCCUGUCCAGCGAUGCAGACACCCUGUCCCUCA` has a log2 enrichment of -0.209.
With `UCCUGUGCUACACAUCGUAUGUACCGAAUCGGGGAAAAAAGGAAAAAAGGGAAAAAAGGGAAAGUAUUAUGUUACGCCGUUCGGAUCUGC` the log2 enrichment was -1.17.
The log2 enrichment of `UCAAGUCCUGUGCUACACAUCGUAUGUACCGAAUCGGGGAGGGGAGGGGAGGGGAAAGUAUUAUGUUACGCCGUUCGGAUCUGCACUUCC` is reported as 3.28.
`UCAGGAAGUAAAAACAAAUGGAAAUGCUUCGGAUAGUGGCAGGGGUGGGGGUUGCUAAGGAAAGGGUGGGAUGGGAGUGGGUAAAGAGUU` gave a log2 enrichment of 1.85.
`CACAGACAACACGCACCCACACAGACACAGAGGGAAGGGGUUGGGAUGGUGACAGGGUGCACAGCAGGGCGGGGUAGGACCCCAGCCCCU` has a log2 enrichment of -0.641.
For `CAAGUCCUGUGCUACACAUCGUAUGUACCGAAUCGGGGCCCGGGGCCCGGCCCGGAAAGUAUUAUGUUACGCCGUUCGGAUCUGCACUUC`, the log2 enrichment was -1.56.
`GCAGGAAGUAAAAACAAAUGGAAAUGCUUCAAAUAGUGGCAGGGGUGGGGGUUGCUAAGGAAAGGGUGGGAUGGGAGUGGGUAAAGAGUU` has a log2 enrichment of 1.78.

Sample 4 — method: protein-binding microarray; molecule type: double-stranded DNA, one strand shown; matrix: in vitro; tested at: 2540 nM top; setting: 60-bp whole probe; with: salmon DNA 0.4 mg/ml; reference: random background probes; reading: higher = stronger binding; shared flanks, not repeated: GCCTAGCAC … GTCTTGATTCGCTTGACGCTGCTG
Target: Interferon regulatory factor 3, full length, phosphomimetic (IRF3, Homo sapiens, UniProt Q14653, residues 1-427, S386D/S396D/S398D/S402D/T404D/S405D)
Construct (chain): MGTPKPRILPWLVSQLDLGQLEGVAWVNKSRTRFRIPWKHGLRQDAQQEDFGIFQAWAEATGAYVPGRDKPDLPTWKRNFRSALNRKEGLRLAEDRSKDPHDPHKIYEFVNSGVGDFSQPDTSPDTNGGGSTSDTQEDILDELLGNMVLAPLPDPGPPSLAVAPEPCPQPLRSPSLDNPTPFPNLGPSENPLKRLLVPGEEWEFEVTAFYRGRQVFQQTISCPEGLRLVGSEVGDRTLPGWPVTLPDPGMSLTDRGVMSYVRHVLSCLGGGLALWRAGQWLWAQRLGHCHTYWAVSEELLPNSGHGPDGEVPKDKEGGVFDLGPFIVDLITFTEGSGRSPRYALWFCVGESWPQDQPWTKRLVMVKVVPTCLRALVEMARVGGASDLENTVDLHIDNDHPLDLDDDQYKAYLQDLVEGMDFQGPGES
For `TCAGATTTCCTTCACCCACTGTGCTAG`, “fitted relative affinity” read 1.86 z-score.
`TAAGAACTGGGGACTGGATTAGTGCTA`: “fitted relative affinity” -0.899 z-score.
`GACGATTTCAGTTCCAAGACGTGCTAG`: “fitted relative affinity” 3.26 z-score.
`TTAGATCTCAGACTGTATTAGTGCTAG`: “fitted relative affinity” -0.0728 z-score.
Under “fitted relative affinity”, `GAACCTTCAGCTCTAGGTTCGTGCTAG` is recorded as 0.423 z-score.
`GACGGACTACTTATCCTGACGTGCTAG`: “fitted relative affinity” 0.136 z-score.
`TTAGGTTTCGGGCATCGGTTAGTGCTA` — result for “fitted relative affinity”: 2.05 z-score.
For `TTGTCTCCCCCATCTTGTTCCGTGCTA`, “fitted relative affinity” read 1.11 z-score.
`TCAGGTATCGGACTGGGTTAGTGCTAG` — result for “fitted relative affinity”: 1.52 z-score.
Under “fitted relative affinity”, `TCCTCTGTCATTTTCTCTTAGTGCTAG` is recorded as 0.96 z-score.
Under “fitted relative affinity”, `TTAGGTATTGACACTGGGTTAGTGCTA` is recorded as -0.828 z-score.
Under “fitted relative affinity”, `GACGCTCTCCTTATCCTGACGTGCTAG` is recorded as 1.56 z-score.
Under “fitted relative affinity”, `TCATATTTGTCCCTATTACTGTGCTAG` is recorded as 1.52 z-score.
`TCACTTTCCACTTTCTTACTGTGCTAG` — result for “fitted relative affinity”: 5.22 z-score.
Under “fitted relative affinity”, `TAGGTTTCACTTTCCAAAACGTGCTAG` is recorded as 8.88 z-score.
For `GACGATTTCGGGACTGGAGTCGTGCTA`, “fitted relative affinity” read 2.1 z-score.

Excerpt of the above (sample 2):
The E-score of `CCTTTCAG` is reported as 0.0178.
For `TAGCACGA`, the E-score was -0.0778.
For `CAGGATCG`, the E-score was -0.0926.
